Results gathered from unrelated publications.
Lines come from different studies, so protocols differ. Numbers after ± are the reported error.

`Oc1ccc(-c2cc(-c3ccc(OCCN4CCCCC4)cc3)n(-c3ccc(O)cc3)n2)cc1` has an IC50 of 8670 ± 120 nM (TLR4 (mouse); TNF-alpha production, inhibitor; RAW264.7; 6 h, with: LPS 10 ng/mL).
With `CN[C@@H]1[C@H](O)[C@H](NC)[C@H]2O[C@]3(O)[C@H](O[C@@H]2[C@H]1O)O[C@H](C)C[C@@]3(O)CNCCc1cccs1` the IC50 was 1640 ± 360 nM (Mycolicibacterium smegmatis ribosome; cell-free translation).
For `N=C(N)c1ccc(-c2ccc(-c3nc4ccc(C(=N)N)cc4[nH]3)[se]2)cc1`, the IC50 was 50 nM (PU.1 ETS domain (mouse); protein-DNA binding, inhibitor, surface plasmon resonance; with: λB site DNA hairpin).
The IC50 of `Oc1ccc(-c2cc(-c3ccc(OCCCN4CCCCC4)cc3)n(-c3ccc(O)cc3)n2)cc1` is reported as 9260 ± 360 nM (TLR4 (mouse); TNF-alpha production, inhibitor; RAW264.7; 6 h, with: LPS 10 ng/mL).
For `CN[C@@H]1[C@H](O)[C@H](NC)[C@H]2O[C@]3(O)[C@H](O[C@@H]2[C@H]1O)O[C@H](C)C[C@@]3(O)CNCc1ccc(F)cc1`, the IC50 was 1180 ± 380 nM (Mycolicibacterium smegmatis ribosome; cell-free translation).
With `CCCc1c(-c2ccc(O)cc2)nn(-c2ccc(O)cc2)c1-c1ccc(OCCN2CCCCC2)cc1` the IC50 was 4720 ± 150 nM (TLR9; TNF-alpha production, antagonist, ELISA; RAW264.7; 6 h, with: CpG-DNA 1 µM).
The IC50 of `CCCCC/C=C/C(=O)CCc1ccc(O)c(OC)c1` is reported as 0.0718 µg/mL (mouse mAb 1-D6; antibody binding, indirect competitive ELISA; with: coating antigen 5-OVA).
With `CN[C@@H]1[C@H](O)[C@H](NC)[C@H]2O[C@]3(O)[C@H](O[C@@H]2[C@H]1O)O[C@H](C)C[C@@]3(O)CNCCc1nccs1` the IC50 was 970 ± 370 nM (Mycolicibacterium smegmatis ribosome; cell-free translation).
The IC50 of `O=C(Nc1ccc(S(=O)(=O)Nc2nccs2)cc1)c1cc(-c2ccccc2)nc2ccccc12` is reported as ~1000 nM (ChREBP human; reporter gene, inhibitor, LPK promoter luciferase; HepG2; with: high glucose).
For `COc1cc(CCC(C)=O)ccc1O`, the IC50 was 0.165 µg/mL (mouse mAb 1-D6; antibody binding, indirect competitive ELISA).
`CN[C@@H]1[C@H](O)[C@H](NC)[C@H]2O[C@]3(O)[C@H](O[C@@H]2[C@H]1O)O[C@H](C)C[C@@]3(O)CNCCC1CCOCC1` has an IC50 of 1150 ± 400 nM (Mycolicibacterium smegmatis ribosome; cell-free translation).
With `COC(=O)c1ccc2c(c1)NC(=O)/C2=C(\Nc1ccc(N(C)C(=O)CN2CCN(CCCCNC(=O)CCc3cn(CCCCN4C[C@@H]5C[C@H]4C(=O)N[C@@H](CC(C)C)C(=O)N[C@@H](CCCNC(=N)N)C(=O)NCC(=O)N[C@@H](CC(=O)O)C(=O)N[C@@H](CC(C)C)C(=O)N5)nn3)CC2)cc1)c1ccccc1` the IC50 was < 1000 nM (integrin αVβ6 (mouse); cell adhesion to fibronectin; L929; 30 min preincubation).

Repeated from above:
With `COC(=O)c1ccc2c(c1)NC(=O)/C2=C(\Nc1ccc(N(C)C(=O)CN2CCN(CCCCNC(=O)CCc3cn(CCCCN4C[C@@H]5C[C@H]4C(=O)N[C@@H](CC(C)C)C(=O)N[C@@H](CCCNC(=N)N)C(=O)NCC(=O)N[C@@H](CC(=O)O)C(=O)N[C@@H](CC(C)C)C(=O)N5)nn3)CC2)cc1)c1ccccc1` the IC50 was < 1000 nM (integrin αVβ6 (mouse); cell adhesion to fibronectin; L929; 30 min preincubation).
